Results of several laboratories.
Every numbered part comes from another study and shows a few of its results, in no order.
Sequence of UniProt O14730 (whole entry, looked up): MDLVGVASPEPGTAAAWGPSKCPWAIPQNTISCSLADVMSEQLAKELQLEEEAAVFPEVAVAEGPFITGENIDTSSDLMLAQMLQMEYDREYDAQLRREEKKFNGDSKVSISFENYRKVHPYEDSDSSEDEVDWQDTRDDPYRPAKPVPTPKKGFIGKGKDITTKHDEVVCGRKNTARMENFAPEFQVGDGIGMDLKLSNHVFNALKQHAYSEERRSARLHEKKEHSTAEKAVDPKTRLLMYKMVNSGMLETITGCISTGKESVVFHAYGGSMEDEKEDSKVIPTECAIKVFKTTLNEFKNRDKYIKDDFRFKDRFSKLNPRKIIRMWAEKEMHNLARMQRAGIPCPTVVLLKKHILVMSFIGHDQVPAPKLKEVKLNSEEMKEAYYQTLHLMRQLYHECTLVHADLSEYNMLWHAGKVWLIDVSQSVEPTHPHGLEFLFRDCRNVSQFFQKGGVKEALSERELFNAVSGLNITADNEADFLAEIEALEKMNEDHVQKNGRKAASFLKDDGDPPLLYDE
Sequence of UniProt P28223 (whole entry, looked up): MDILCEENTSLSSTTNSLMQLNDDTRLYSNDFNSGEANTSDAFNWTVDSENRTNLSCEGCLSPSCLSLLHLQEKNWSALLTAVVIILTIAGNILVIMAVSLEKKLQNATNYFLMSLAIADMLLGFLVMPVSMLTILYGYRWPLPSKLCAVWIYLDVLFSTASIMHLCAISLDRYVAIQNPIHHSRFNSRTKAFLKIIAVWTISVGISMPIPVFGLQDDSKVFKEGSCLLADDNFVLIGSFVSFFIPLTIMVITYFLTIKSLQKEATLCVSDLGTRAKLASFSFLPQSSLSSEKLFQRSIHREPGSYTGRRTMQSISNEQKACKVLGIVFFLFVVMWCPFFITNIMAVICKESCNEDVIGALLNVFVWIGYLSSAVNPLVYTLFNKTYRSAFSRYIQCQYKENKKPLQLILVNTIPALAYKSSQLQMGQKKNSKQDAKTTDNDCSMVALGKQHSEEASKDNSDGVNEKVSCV
Sequence of UniProt Q14164 (whole entry, looked up): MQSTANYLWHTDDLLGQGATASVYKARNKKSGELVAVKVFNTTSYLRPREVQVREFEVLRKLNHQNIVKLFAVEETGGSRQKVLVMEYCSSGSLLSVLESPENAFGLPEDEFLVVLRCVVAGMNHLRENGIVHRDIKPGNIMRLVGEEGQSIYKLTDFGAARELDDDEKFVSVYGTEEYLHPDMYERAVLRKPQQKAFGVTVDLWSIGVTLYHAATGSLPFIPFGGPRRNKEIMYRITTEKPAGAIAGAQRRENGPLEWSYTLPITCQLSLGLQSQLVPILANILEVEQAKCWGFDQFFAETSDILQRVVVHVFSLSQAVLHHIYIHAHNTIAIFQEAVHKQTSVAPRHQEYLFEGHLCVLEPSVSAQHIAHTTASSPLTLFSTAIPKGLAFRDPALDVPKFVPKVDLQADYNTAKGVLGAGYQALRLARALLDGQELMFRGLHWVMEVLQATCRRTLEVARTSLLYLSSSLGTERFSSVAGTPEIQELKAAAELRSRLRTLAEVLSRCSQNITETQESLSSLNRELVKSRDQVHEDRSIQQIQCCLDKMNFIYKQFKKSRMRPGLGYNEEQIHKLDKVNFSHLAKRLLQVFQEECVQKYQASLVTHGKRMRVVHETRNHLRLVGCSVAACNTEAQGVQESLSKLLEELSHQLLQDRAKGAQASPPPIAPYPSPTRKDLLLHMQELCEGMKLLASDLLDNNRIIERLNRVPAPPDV
Sequence of UniProt Q9HBY8 (whole entry, looked up): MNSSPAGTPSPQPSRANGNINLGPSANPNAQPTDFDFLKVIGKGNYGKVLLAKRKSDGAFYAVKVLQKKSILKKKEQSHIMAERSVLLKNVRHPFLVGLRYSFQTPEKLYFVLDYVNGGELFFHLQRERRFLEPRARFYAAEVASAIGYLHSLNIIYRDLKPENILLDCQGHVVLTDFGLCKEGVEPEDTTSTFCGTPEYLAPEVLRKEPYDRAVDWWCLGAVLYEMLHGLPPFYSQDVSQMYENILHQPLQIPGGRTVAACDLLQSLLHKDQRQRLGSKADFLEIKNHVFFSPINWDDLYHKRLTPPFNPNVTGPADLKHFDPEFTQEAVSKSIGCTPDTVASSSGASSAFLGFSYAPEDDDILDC
Sequence of UniProt Q8WXR4 (whole entry, looked up): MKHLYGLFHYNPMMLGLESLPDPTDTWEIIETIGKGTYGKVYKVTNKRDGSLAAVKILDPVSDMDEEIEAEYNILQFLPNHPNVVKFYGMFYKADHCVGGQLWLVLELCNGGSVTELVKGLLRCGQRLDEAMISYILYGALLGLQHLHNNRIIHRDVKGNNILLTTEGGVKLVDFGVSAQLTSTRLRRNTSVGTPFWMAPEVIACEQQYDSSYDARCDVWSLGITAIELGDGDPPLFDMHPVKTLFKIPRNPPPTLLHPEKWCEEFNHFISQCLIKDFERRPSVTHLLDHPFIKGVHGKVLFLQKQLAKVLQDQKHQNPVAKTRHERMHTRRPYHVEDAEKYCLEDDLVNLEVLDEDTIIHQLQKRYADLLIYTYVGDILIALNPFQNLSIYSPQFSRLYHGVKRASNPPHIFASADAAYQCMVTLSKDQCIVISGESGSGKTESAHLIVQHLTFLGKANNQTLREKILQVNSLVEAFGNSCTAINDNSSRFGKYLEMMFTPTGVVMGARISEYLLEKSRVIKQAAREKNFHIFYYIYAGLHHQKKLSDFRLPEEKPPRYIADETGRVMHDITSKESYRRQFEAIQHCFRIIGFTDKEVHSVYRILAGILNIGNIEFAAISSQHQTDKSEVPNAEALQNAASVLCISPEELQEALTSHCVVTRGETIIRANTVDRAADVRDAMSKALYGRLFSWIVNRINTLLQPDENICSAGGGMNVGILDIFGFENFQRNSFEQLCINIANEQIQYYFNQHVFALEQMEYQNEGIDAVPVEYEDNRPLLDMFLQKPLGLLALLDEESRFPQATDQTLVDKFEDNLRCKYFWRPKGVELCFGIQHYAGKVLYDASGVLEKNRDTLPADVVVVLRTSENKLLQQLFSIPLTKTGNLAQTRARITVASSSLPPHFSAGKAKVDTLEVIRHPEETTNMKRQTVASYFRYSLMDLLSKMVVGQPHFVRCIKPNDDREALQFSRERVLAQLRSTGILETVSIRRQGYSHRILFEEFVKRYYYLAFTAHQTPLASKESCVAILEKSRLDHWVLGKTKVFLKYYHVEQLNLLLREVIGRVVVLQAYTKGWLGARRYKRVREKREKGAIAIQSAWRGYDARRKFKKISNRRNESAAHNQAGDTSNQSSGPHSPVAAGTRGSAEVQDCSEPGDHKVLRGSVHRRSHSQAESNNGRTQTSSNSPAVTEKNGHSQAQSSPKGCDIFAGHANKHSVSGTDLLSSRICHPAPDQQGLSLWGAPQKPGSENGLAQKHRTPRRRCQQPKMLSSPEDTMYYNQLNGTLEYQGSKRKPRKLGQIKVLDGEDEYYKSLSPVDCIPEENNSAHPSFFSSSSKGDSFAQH
Sequence of UniProt Q9NQU5 (whole entry, looked up): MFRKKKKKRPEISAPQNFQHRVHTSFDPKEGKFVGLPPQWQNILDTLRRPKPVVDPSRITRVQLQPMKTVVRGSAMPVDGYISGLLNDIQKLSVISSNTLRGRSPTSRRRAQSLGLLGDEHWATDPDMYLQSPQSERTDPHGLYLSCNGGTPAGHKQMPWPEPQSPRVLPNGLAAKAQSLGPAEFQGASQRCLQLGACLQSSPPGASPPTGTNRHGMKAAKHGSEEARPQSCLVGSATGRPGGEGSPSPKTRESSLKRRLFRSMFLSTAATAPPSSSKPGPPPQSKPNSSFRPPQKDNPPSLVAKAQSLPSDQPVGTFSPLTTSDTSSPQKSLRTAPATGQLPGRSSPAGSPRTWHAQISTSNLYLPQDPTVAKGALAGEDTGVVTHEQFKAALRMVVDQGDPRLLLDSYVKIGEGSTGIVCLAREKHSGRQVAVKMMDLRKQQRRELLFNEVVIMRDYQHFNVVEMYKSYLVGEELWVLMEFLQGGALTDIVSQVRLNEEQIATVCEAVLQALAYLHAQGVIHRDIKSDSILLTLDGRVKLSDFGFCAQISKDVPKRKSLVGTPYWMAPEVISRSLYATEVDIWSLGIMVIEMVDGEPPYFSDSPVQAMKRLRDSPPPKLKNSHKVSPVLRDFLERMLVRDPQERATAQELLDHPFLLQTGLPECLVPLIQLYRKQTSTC
Sequence of UniProt P30988 (whole entry, looked up): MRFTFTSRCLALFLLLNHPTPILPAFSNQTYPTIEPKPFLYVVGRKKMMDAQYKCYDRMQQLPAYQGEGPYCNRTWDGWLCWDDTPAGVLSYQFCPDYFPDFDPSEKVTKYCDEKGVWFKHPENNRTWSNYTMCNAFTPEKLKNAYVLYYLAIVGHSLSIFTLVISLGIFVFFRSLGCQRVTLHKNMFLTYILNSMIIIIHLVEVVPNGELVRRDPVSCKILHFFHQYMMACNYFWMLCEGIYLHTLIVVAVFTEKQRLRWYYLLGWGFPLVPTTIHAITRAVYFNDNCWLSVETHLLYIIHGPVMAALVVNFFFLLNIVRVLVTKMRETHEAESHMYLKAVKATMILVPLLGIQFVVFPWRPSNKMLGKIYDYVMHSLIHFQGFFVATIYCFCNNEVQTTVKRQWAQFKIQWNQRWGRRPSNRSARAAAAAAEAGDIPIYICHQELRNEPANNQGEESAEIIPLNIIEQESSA

Block 1
Structure (SMILES): CN(C)C(=O)Cn1cc(-c2nc(C3(c4ccc(-c5cnc(N)nc5)cc4)CC3)no2)cn1
Tested at: 1 µM
Endpoint: remaining binding
MAPKAPK5 (Homo sapiens, UniProt Q8IW41); cell-free assay, competition with immobilised ligand: 92%
STK39 (Homo sapiens, UniProt Q9UEW8); cell-free assay, competition with immobilised ligand: 100%
CAMK4 (Homo sapiens, UniProt Q16566); cell-free assay, competition with immobilised ligand: 100%
BLK (Homo sapiens, UniProt P51451); cell-free assay, competition with immobilised ligand: 83%
NEK6 (Homo sapiens, UniProt Q9HC98); cell-free assay, competition with immobilised ligand: 81%
Myosin-IIIb (MYO3B, Homo sapiens, UniProt Q8WXR4); binding, competition with immobilised ligand: 100%
CDK15 (Homo sapiens, UniProt Q96Q40); cell-free assay, competition with immobilised ligand: 100%
FLT3 (Homo sapiens, UniProt P36888, D835V); cell-free assay, competition with immobilised ligand: 49%
EPHB2 (Homo sapiens, UniProt P29323); cell-free assay, competition with immobilised ligand: 70%
FLT3 (Homo sapiens, UniProt P36888, K663Q); cell-free assay, competition with immobilised ligand: 100%
SIK1 (Homo sapiens, UniProt P57059); competition binding: 86%
STK32A (Homo sapiens, UniProt Q8WU08); cell-free assay, competition with immobilised ligand: 97%
FLT3 (Homo sapiens, UniProt P36888); cell-free assay, competition with immobilised ligand: 90%
Aurora kinase A (AURKA, Homo sapiens, UniProt O14965); cell-free assay, competition with immobilised ligand: 82%
IKBKE (Homo sapiens, UniProt Q14164); cell-free assay, competition with immobilised ligand: 57%
CAMK2B (Homo sapiens, UniProt Q13554); cell-free assay, competition with immobilised ligand: 94%
Ribosomal protein S6 kinase alpha-3, C-terminal kinase domain (RPS6KA3, Homo sapiens, UniProt P51812); cell-free assay, competition with immobilised ligand: 85%
RIOK3 (Homo sapiens, UniProt O14730); cell-free assay, competition with immobilised ligand: 89%
VRK2 (Homo sapiens, UniProt Q86Y07); cell-free assay, competition with immobilised ligand: 90%
EGFR (Homo sapiens, UniProt P00533, del747-752/P753S); cell-free assay, competition with immobilised ligand: 79%
WNK4 (Homo sapiens, UniProt Q96J92); cell-free assay, competition with immobilised ligand: 80%
PDGFRB (Homo sapiens, UniProt P09619); cell-free assay, competition with immobilised ligand: 94%
IRAK3 (Homo sapiens, UniProt Q9Y616); cell-free assay, competition with immobilised ligand: 96%
CLK2 (Homo sapiens, UniProt P49760); cell-free assay, competition with immobilised ligand: 94%
FLT3 (Homo sapiens, UniProt P36888, D835Y); cell-free assay, competition with immobilised ligand: 100%

Block 2
Target: Calcium/calmodulin-dependent protein kinase type II subunit alpha (CAMK2A, Homo sapiens, UniProt Q9UQM7)
Sequence of UniProt Q9UQM7 (whole entry, looked up): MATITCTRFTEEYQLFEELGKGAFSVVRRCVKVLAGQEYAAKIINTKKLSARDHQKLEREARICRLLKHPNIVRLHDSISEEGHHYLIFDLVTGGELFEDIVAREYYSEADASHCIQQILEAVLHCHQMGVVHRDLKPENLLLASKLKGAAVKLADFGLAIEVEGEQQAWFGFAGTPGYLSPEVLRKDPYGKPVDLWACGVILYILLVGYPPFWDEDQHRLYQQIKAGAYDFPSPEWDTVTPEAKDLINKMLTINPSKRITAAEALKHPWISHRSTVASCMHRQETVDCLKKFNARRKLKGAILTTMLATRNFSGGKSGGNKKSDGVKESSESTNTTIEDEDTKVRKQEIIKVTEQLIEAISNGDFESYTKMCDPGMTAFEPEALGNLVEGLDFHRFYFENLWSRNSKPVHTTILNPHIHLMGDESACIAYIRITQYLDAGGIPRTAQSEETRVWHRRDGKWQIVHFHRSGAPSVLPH
Read-out: enzyme activity
Action: inhibitor
Tested at: 10 µM
Endpoint: inhibition
Cc1ccc(O)c(O)c1: 24%
O=c1c2ccccc2nc2n1CC[C@@H]2O: 39%
CC(=O)c1ccc(O)cc1O: 8%
COc1cc([C@@H]2c3cc4c(cc3[C@H](O)[C@H]3COC(=O)[C@@H]23)OCO4)cc(OC)c1OC: -1%
COC(=O)C1=CO[C@@H](C)[C@H]2CN3CCc4c([nH]c5ccccc45)[C@@H]3C[C@H]12: 14%
Clc1ccc2c(c1)C(N1CCNCC1)=Nc1ccccc1O2: -10%
COc1c2ccoc2c(O)c2oc(=O)ccc12: -2%
Clc1ccc2c(N3CCN(CCCN4CCN(c5ccnc6cc(Cl)ccc56)CC4)CC3)ccnc2c1: -7%
O=c1c(-c2ccc(O)cc2)coc2c([C@@H]3O[C@H](CO)[C@@H](O)[C@H](O)[C@H]3O)c(O)ccc12: 18%
COc1ccc(-c2cc(=O)c3c(O)cc(O)cc3o2)cc1: 8%
COc1cc2ccc(=O)oc2c(O[C@@H]2O[C@H](CO)[C@@H](O)[C@H](O)[C@H]2O)c1O: -5%
Cc1ncccc1O: -44%

Block 3
Compound: Clc1ccc(Nc2nnc(Cc3ccncc3)c3ccccc23)cc1
Read-out: enzyme activity
Action: inhibitor
Tested at: 0.5 µM
Reference: control
Endpoint: remaining activity
SGK2 (Homo sapiens, UniProt Q9HBY8): 104%
TEC (Homo sapiens, UniProt P42680): 137%
CLK1 (Homo sapiens, UniProt P49759): 110%
SIK2 (Homo sapiens, UniProt Q9H0K1): 97.9%
CSNK1E (Homo sapiens, UniProt P49674): 99.1%
SRPK1 (Homo sapiens, UniProt Q96SB4): 98.5%
PAK1 (Homo sapiens, UniProt Q13153): 116%
TYRO3 (Homo sapiens, UniProt Q06418): 98.2%
EPHA6 (Homo sapiens, UniProt Q9UF33): 101%
CAMKK1 (Homo sapiens, UniProt Q8N5S9): 97.2%
FLT1 (Homo sapiens, UniProt P17948): 59.4%
JAK1 (Homo sapiens, UniProt P23458): 107%
Cyclin-dependent kinase 2, with cyclin E (CDK2, Homo sapiens, UniProt P24941): 94.5%
IGF1R (Homo sapiens, UniProt P08069): 108%
CSNK1D (Homo sapiens, UniProt P48730): 92.2%
MUSK (Homo sapiens, UniProt O15146): 105%
CAMK1 (Homo sapiens, UniProt Q14012): 100%
PAK6 (Homo sapiens, UniProt Q9NQU5): 107%
MAP3K20 (Homo sapiens, UniProt Q9NYL2): 90.3%
PRKCQ (Homo sapiens, UniProt Q04759): 73.5%
EPHA2 (Homo sapiens, UniProt P29317): 92.5%

Block 4
SMILES: NC(N)=NC(=O)c1nc(Cl)c(N2CCCCCC2)nc1N
Read-out: β-arrestin recruitment
Action: agonist
Method: PRESTO-Tango
Tested at: 10 µM
Reference: untreated
Endpoint: fold over basal
NPBWR1 (Homo sapiens, UniProt P48145): 1.06
HTR2A (Homo sapiens, UniProt P28223): 0.34
TACR2 (Homo sapiens, UniProt P21452): 0.67 fold
ADGRG6 (Homo sapiens, UniProt Q86SQ4): 1.97
Probable G-protein coupled receptor 162 (GPR162, Homo sapiens, UniProt Q16538): 0.74
CCR7 (Homo sapiens, UniProt P32248): 0.95
G-protein coupled receptor 15 (Homo sapiens, UniProt P49685): 0.75
N-formyl peptide receptor 3 (Homo sapiens, UniProt P25089): 0.47 fold
GPRC5C (Homo sapiens, UniProt Q9NQ84): 1.23
Calcitonin receptor, isoform b (CALCR, Homo sapiens, UniProt P30988): 1.04
Relaxin receptor 2 (RXFP2, Homo sapiens, UniProt Q8WXD0): 0.7
GRM2 (Homo sapiens, UniProt Q14416): 0.94 fold
CHRM4 (Homo sapiens, UniProt P08173): 0.73
G-protein coupled receptor 61 (GPR61, Homo sapiens, UniProt Q9BZJ8): 0.62
LPAR1 (Homo sapiens, UniProt Q92633): 1.17
NPY1R (Homo sapiens, UniProt P25929): 0.79

Some of these lines once more (block 1):
PDGFRB (Homo sapiens, UniProt P09619); cell-free assay, competition with immobilised ligand: 94%
FLT3 (Homo sapiens, UniProt P36888, D835V); cell-free assay, competition with immobilised ligand: 49%
NEK6 (Homo sapiens, UniProt Q9HC98); cell-free assay, competition with immobilised ligand: 81%
WNK4 (Homo sapiens, UniProt Q96J92); cell-free assay, competition with immobilised ligand: 80%
VRK2 (Homo sapiens, UniProt Q86Y07); cell-free assay, competition with immobilised ligand: 90%
EGFR (Homo sapiens, UniProt P00533, del747-752/P753S); cell-free assay, competition with immobilised ligand: 79%
IRAK3 (Homo sapiens, UniProt Q9Y616); cell-free assay, competition with immobilised ligand: 96%
CAMK4 (Homo sapiens, UniProt Q16566); cell-free assay, competition with immobilised ligand: 100%
FLT3 (Homo sapiens, UniProt P36888, D835Y); cell-free assay, competition with immobilised ligand: 100%
